Values quoted from earlier work, collected from citations in different studies.
Protocols differ between the studies behind these lines. ± gives the spread as reported.

Amino acid sequences for entries named in this document (tags omitted). Residues count along the entry.
UniProt Q6IQ20, whole entry: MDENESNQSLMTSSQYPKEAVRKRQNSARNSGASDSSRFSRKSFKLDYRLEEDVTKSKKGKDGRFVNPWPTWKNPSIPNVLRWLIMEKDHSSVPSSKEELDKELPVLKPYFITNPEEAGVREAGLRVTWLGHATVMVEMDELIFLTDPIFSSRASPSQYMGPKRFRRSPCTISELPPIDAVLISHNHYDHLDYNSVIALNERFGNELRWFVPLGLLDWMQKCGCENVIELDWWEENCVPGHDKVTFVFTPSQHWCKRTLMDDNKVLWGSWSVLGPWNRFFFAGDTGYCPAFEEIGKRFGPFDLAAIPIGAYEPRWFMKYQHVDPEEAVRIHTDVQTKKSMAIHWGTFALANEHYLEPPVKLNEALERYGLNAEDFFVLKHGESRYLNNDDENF
UniProt P36544, 23-502 limits assumed: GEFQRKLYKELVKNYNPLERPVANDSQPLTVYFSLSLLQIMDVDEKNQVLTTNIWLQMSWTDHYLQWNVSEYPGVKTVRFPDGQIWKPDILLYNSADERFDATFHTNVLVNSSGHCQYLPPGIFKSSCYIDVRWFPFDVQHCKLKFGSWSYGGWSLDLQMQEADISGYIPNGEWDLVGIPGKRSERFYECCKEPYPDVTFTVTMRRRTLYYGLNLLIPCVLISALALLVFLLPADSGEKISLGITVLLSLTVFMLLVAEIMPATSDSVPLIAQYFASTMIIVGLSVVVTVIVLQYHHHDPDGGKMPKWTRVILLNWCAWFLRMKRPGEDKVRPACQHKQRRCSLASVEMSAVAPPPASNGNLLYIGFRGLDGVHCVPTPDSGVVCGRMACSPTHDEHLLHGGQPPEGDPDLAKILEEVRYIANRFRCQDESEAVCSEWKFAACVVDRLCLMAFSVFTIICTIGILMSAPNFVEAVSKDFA
UniProt P49146, whole entry: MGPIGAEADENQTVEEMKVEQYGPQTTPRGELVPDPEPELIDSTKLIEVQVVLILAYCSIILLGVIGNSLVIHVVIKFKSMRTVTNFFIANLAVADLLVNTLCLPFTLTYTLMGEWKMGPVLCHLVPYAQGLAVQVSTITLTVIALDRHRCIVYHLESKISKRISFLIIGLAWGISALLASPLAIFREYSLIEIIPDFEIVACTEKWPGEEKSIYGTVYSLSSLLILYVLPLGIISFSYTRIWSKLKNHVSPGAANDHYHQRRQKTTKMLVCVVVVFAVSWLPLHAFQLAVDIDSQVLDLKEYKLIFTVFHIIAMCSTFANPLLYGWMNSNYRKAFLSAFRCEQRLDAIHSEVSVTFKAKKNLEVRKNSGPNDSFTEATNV

With `methyl arachidonyl fluorophosphonate` the IC50 was 1000 µM (N-acyl-phosphatidylethanolamine-hydrolyzing phospholipase D (Homo sapiens, UniProt Q6IQ20); enzyme activity, inhibitor).
For `α-conotoxin ImI`, the IC50 was 0.497 ± 0.032 µM (Neuronal acetylcholine receptor subunit alpha-7 (CHRNA7, Homo sapiens, UniProt P36544); ACh-evoked current, inhibitor; Xenopus laevis oocytes; with: 100 µM ACh).
With `O=[As]c1ccccc1` (centres unmarked) the Ki was over 2000 µM (Neuropeptide Y receptor type 2 (NPY2R, Homo sapiens, UniProt P49146); binding; membrane particulates).
With `O=C(NN1C(=O)[C@@H]2[C@@H]3C=C[C@@H]([C@H]4C[C@@H]34)[C@@H]2C1=O)c1ccc(C(F)(F)F)cc1` the EC50 was 0.004 to 0.02 µM (monkeypox virus; viral replication; HFF, outbreak isolates).
`CN(C)C(=O)Oc1ccc[n+](C)c1` has an LD50 of 3.08 mg/kg (mouse; intramuscular, 24 h).

Repeated from above:
`CN(C)C(=O)Oc1ccc[n+](C)c1` has an LD50 of 3.08 mg/kg (mouse; intramuscular, 24 h).
